Measured values gathered from unrelated publications.
Numbered parts are unrelated; each lists some results of a single study. Positions count from the first letter of the parent shown.

Study 1 — target: CCNF, cyclin fold, Cln2 fusion (human); technique: yeast growth competition, sequencing; medium: yeast; notes: strong parent motif; baseline: not given; reading: higher = stronger binding
Starting sequence: SAMHD1 docking peptide (human); ASKSRVQLFKDDP
`Q7A` — result for “normalised enrichment score”: 0.262.
For `S2C`, “normalised enrichment score” read 2.85.
`L8G` — result for “normalised enrichment score”: -0.215.
Under “normalised enrichment score”, `S2I` is recorded as 2.12.
`D12I` — result for “normalised enrichment score”: 1.52.
For `K10V`, “normalised enrichment score” read 0.529.
For `S4G`, “normalised enrichment score” read 2.03.

Study 2 — technique: RNA Bind-n-Seq; molecule type: RNA; medium: in vitro; tested at: 365 nM; baseline: no-protein control; reading: higher = stronger binding
Target: RNA binding protein fox-1 homolog 2, RRM domain, GST-SBP tag (RBFOX2, Homo sapiens, UniProt O43251-10, residues 100-194)
Notes: natural RNA segment, single round, ends assumed
Target sequence (chain): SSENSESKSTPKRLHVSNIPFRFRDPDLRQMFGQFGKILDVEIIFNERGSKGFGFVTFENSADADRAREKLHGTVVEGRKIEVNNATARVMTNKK
`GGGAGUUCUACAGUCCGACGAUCAUGAGGGCCACCAGGAAGCACAGGUCCAAGGCUGGUCCCACACUUAUCAGCAGCAACAACUGUCAGUUCAUCCUGCAUGGGAAAAAUGUUGGAAUGGGAGUCUGAAAUGGUGGAAUUCUCGGGUGCCAA` — result for “RBNS enrichment (R)”: 2.05.
Under “RBNS enrichment (R)”, `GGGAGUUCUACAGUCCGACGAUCCCCACUUUCAGAGUCGAAUCAGCUCUGAGCCUAGGACAGUGCUGGCUCUCUGAGGGCAACCAGGCCUUGUGUCCUGGUACCUGUGACACUGUUGUGGUCACAGCAGUGCCUGGAAUUCUCGGGUGCCAA` is recorded as 0.249.
Under “RBNS enrichment (R)”, `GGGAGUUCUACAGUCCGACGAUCGUGGCAAGAACAGUGGGCGUUGGGAGCCUAGCUCCUGCCACAUGGAGCCCCCUCUGCCGGUCGGGCAGCCAGCAGAGGGGGAGUAGCCAAGCUGCUUGUCCUGGGCCUGCUGGAAUUCUCGGGUGCCAA` is recorded as 0.518.
For `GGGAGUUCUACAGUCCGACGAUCCUUUGAUAGAUCUCUGCCGGGGUCCUCAUGUUAGACACACGGGCAAAAUUAAGGCUUUAAAAAUACACAAAGAUUCCUCCACGUACUGGGAAGGCAAAGCAGAUAUGGAGUGGAAUUCUCGGGUGCCAA`, “RBNS enrichment (R)” read 0.389.
`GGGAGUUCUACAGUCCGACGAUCCUCUGAACUAAUUCCUAAAGAGAAGCAACAAUAUGUGUAUGUGGGGGGGUUGAUCACAUACAUGUACCAUCGUGUGAUCAUAGUACUAUGAUUUGCUUUUGACGUCUGUCUGGAAUUCUCGGGUGCCAA` — result for “RBNS enrichment (R)”: 0.733.
`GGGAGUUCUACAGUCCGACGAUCGGAGGCUGAGGCAGGAGAAUCGCUUGAACCCGGGAGGUGGAGGUUGCGGUGAGCCAAGAUCGCACCAUUGCACUCCAGCCUGGGCAACAAGAGCGAAACUCUGUCUCAAAUGGAAUUCUCGGGUGCCAA` — result for “RBNS enrichment (R)”: 0.356.
`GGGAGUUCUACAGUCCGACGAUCAGUGCCUAGAACUCCCGUGGUGGUCCUGAGCAGAGAGGAGGAUGUCCUCCUGCCUGCCUGAAGGUCUCCCAUGAAAACACUGCUGAACUGUGUUGACACUCAUGACCCUUUGGAAUUCUCGGGUGCCAA`: “RBNS enrichment (R)” 0.259.
`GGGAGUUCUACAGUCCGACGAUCGUCCAGGAGAAACCUAAAGACAUAAUACAGUUCACUGCCGAGAAGCUCUCUGUGGGGGAAGUGUCACAGUUGGUGGUGUCCCCUCUGUGUGGUGCAGUGUCUCUCUUUGUUGGAAUUCUCGGGUGCCAA`: “RBNS enrichment (R)” 0.489.

Study 3 — technique: aptamer microarray, sandwich; molecule type: DNA with 2'F-ANA; medium: in vitro; tested at: 200 nM; added: Cy3 exosite-II aptamer, 400 nM; reading: higher = stronger binding; strand: GGTTGGTGTGGTTGG
Target: Prothrombin, mature alpha-thrombin (F2, Homo sapiens, UniProt P00734)
Notes: whole 15-mer aptamer, many near background
`2'F-ANA at 1 2 3 5 7 9 11 14` — result for “mean fluorescence intensity”: 53.8 a.u.
`2'F-ANA at 2 3 4 6 7 8 11 13` — result for “mean fluorescence intensity”: 436 a.u.
`2'F-ANA at 1 2 6 9 11 12 13 15` — result for “mean fluorescence intensity”: 187 a.u.
Under “mean fluorescence intensity”, `2'F-ANA at 1 2 3 4 6 9 15` is recorded as 138 a.u.
`2'F-ANA at 4 5 7 8 9 10 11 13` — result for “mean fluorescence intensity”: 45.7 a.u.
`2'F-ANA at 4 7 8 10 12 14` — result for “mean fluorescence intensity”: 136 a.u.
For `2'F-ANA at 1 2 4 7 10 13 15`, “mean fluorescence intensity” read 47.5 a.u.
`2'F-ANA at 3 4 5 7 8 9 13` — result for “mean fluorescence intensity”: 72 a.u.
For `2'F-ANA at 1 3 4 9 11 12 13`, “mean fluorescence intensity” read 219 a.u.
`2'F-ANA at 2 5 6 9 10 12 14` — result for “mean fluorescence intensity”: 43.1 a.u.
`2'F-ANA at 1 3 6 7 8 9 10 12 13 14` — result for “mean fluorescence intensity”: 81.8 a.u.
`2'F-ANA at 2 3 5 6 7 12 14 15` — result for “mean fluorescence intensity”: 53.8 a.u.

Other studies, line by line
`PhoQ, residues 284 288 289 292 302 303 SLANIV` gave a fold induction of 8.74 (PhoP, residues 12 14 15 18 19 LYFRQ (Escherichia coli, UniProt P23836); Sort-seq, refers to: YFP reporter; E. coli; PhoQ-PhoP variant library, added: 10 µM Mg2+; baseline: high Mg2+ state, higher = stronger signaling).

Some of these lines once more (study 2):
Under “RBNS enrichment (R)”, `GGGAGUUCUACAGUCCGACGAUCGUGGCAAGAACAGUGGGCGUUGGGAGCCUAGCUCCUGCCACAUGGAGCCCCCUCUGCCGGUCGGGCAGCCAGCAGAGGGGGAGUAGCCAAGCUGCUUGUCCUGGGCCUGCUGGAAUUCUCGGGUGCCAA` is recorded as 0.518.
For `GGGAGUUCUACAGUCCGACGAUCCUUUGAUAGAUCUCUGCCGGGGUCCUCAUGUUAGACACACGGGCAAAAUUAAGGCUUUAAAAAUACACAAAGAUUCCUCCACGUACUGGGAAGGCAAAGCAGAUAUGGAGUGGAAUUCUCGGGUGCCAA`, “RBNS enrichment (R)” read 0.389.
`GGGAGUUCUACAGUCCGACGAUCCUCUGAACUAAUUCCUAAAGAGAAGCAACAAUAUGUGUAUGUGGGGGGGUUGAUCACAUACAUGUACCAUCGUGUGAUCAUAGUACUAUGAUUUGCUUUUGACGUCUGUCUGGAAUUCUCGGGUGCCAA` — result for “RBNS enrichment (R)”: 0.733.
